Measured values from different studies.
Parts stem from different laboratories: compare values within a part only.

Block 1
Target: Interferon regulatory factor 3, full length, phosphomimetic (IRF3, Homo sapiens, UniProt Q14653, residues 1-427, S386D/S396D/S398D/S402D/T404D/S405D)
Sequence of UniProt Q14653 (whole entry, unmodified, looked up): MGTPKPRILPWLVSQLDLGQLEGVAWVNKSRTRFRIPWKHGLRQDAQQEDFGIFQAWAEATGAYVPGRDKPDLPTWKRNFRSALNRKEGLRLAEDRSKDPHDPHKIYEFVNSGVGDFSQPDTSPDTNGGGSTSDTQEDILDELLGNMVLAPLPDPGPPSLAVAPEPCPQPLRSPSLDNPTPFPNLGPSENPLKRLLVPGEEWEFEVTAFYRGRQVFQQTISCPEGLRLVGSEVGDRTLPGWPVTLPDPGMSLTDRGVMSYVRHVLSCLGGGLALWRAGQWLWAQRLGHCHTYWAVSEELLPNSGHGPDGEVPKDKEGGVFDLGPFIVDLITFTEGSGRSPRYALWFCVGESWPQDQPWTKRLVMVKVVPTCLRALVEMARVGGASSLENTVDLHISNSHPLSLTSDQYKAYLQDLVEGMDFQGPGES
Technique: protein-binding microarray
Molecule type: double-stranded DNA, one strand shown
Matrix: in vitro
Concentration: 2540 nM top
Notes: 60-bp whole probe
Together with: salmon DNA 0.4 mg/ml
Baseline: random background probes
Direction: higher = stronger binding
Endpoint: fitted relative affinity
Shared flanks, not repeated: GCCTAGCAC … GTCTTGATTCGCTTGACGCTGCTG
TTAGGTATCGGTCTCGATTAGTGCTAG: 4.71 z-score
TTAGCTTTCCTTCTCCTTTAGTGCTAG: 7.49 z-score
CCCTTTCTCTCTGTGACACAGTGCTAG: 5.3 z-score
TCAATTATATCTGTGTTACTGTGCTAG: 0.368 z-score
GACGGACTGGACTATTGGGACGTGCTA: -0.587 z-score

Block 2
Target: RNA binding protein fox-1 homolog 2, RRM domain, GST-SBP tag (RBFOX2, Homo sapiens, UniProt O43251-10, residues 100-194)
Technique: RNA Bind-n-Seq
Molecule type: RNA
Matrix: in vitro
Concentration: 365 nM
Notes: natural RNA segment, single round, ends assumed
Baseline: no-protein control
Direction: higher = stronger binding
Endpoint: RBNS enrichment (R)
Construct (chain): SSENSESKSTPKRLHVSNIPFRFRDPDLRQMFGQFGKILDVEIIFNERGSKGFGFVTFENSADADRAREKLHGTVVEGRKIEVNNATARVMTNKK
GGGAGUUCUACAGUCCGACGAUCCCUGUCCCUAGUAUGUUCUUUCAUGUUCUGGGUAAAAUUUCCAACCCUCAAAGAGUCUAAAACGUCUCAUUUUUUUUUACCACGUCCUCCCCAGUAAGAAGCCAAGGUACUGGAAUUCUCGGGUGCCAA: 0.941
GGGAGUUCUACAGUCCGACGAUCCUAUUUGAGGAAAGUAUUAUUUGUCUUAAAGGGUAACAGCCUCAUGAAAUGACUUGAGGAUUCCAAUUUCUUAUUAGCUUAAGAUGUCACUUAAAAGCUGACAGCCCUCAUGGAAUUCUCGGGUGCCAA: 0.525
GGGAGUUCUACAGUCCGACGAUCGGAGCAAUCCAAGCCACAUAUCUUCUACAUCAAAUUUUUCCAUUUUGGUUAUUUUCAUAAUCUGGUAUUGCAUUUUGCCUUCCCUGUUCAUACCUCAAAUUGAUUCAUACUGGAAUUCUCGGGUGCCAA: 5.06
GGGAGUUCUACAGUCCGACGAUCGUUUUGUUGAAAGCGCUAUUGAAUAUUGCAAUCUAUAUAGUGUAUUGGAUGGCUUCUUUUGUCACCCUGAUCUCCUAUGUUACCAAUGUGUAUCGUCUCCUUCUCCCUAAUGGAAUUCUCGGGUGCCAA: 0.297

Block 3
Target: RING finger protein unkempt homolog, zinc fingers 1-6, GST-SBP tag (UNK, Homo sapiens, UniProt Q9C0B0, residues 30-357)
Sequence of UniProt Q9C0B0 (30-357, looked up): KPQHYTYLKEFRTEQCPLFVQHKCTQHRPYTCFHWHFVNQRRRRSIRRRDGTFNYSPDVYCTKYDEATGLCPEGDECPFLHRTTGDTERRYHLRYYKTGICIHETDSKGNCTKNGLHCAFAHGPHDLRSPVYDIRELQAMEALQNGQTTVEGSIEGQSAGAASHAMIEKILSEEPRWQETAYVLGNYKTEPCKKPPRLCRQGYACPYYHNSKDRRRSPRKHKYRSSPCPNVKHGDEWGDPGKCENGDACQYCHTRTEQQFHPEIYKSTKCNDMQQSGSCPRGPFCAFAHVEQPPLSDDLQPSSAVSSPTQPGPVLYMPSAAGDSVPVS
Technique: RNA Bind-n-Seq
Molecule type: RNA
Matrix: in vitro
Concentration: not given
Notes: RNA with constant flanks, human-mouse chimeric sites, ends assumed
Baseline: input RNA pool
Direction: higher = stronger binding
Endpoint: bound/input enrichment
GGGAGUUCUACAGUCCGACGAUCUUCAAAGAAAAGGGCAGCUGUGUCAUUACUUGGGAGAAACUGCAUCCGGGAAAUUCUGUUCUUUUGUUUAAUUUUCCCCCAAAUGAAGCCAAAGUGUGUGUUGAAGAACUGAGAAAAAAUCAACAGAGGAUUGAGCAUCA: 0.163 ratio
GGGAGUUCUACAGUCCGACGAUCUGACAAGGGCACUGCAGAGCCAUGCCUUUCCUUGACAUACAGAAAAAGUUCGGCCUUAACAUAGAUCGGCACUUUAUGUUCCUAAGCGCAGAACAGCCCUAUAAGAACGCCGCUCGGUGCCAACAGAGGAUUGAGCAUCA: 0.1 ratio
GGGAGUUCUACAGUCCGACGAUCUCUUUAAAUGCACUACAACCUUUUCUGACAGUGCUUUCCCUCCCAUAGAUCCACGUUCAAGCUCAAAGAGCAAAGGCUUUGCACGGAGCUCAAACAUCUGAUGAAGAAAGAUUUCUGAGACAACAGAGGAUUGAGCAUCA: 0.408 ratio

Other studies, line by line
PhoQ, residues 284 288 289 292 302 303 TGYLSA — fold induction (PhoP, residues 12 14 15 18 19 NIMAP (Escherichia coli, UniProt P23836); Sort-seq, refers to: YFP reporter; E. coli; PhoQ-PhoP variant library, together with: 10 µM Mg2+; baseline: high Mg2+ state, higher = stronger signaling): 0.951

Excerpt of the above (block 3):
GGGAGUUCUACAGUCCGACGAUCUGACAAGGGCACUGCAGAGCCAUGCCUUUCCUUGACAUACAGAAAAAGUUCGGCCUUAACAUAGAUCGGCACUUUAUGUUCCUAAGCGCAGAACAGCCCUAUAAGAACGCCGCUCGGUGCCAACAGAGGAUUGAGCAUCA: 0.1 ratio
GGGAGUUCUACAGUCCGACGAUCUCUUUAAAUGCACUACAACCUUUUCUGACAGUGCUUUCCCUCCCAUAGAUCCACGUUCAAGCUCAAAGAGCAAAGGCUUUGCACGGAGCUCAAACAUCUGAUGAAGAAAGAUUUCUGAGACAACAGAGGAUUGAGCAUCA: 0.408 ratio
